Measured values collected from several papers.
Each line is one published result; not all experiments were run side by side. Values joined by “and” are separate records of one study, mostly repeats; a detail may differ. Numbers after ± are the reported error.
rep main protease: Replicase polyprotein 1ab, main protease (rep, Severe acute respiratory syndrome coronavirus 2, UniProt P0DTD1)
rep papain-like protease: Replicase polyprotein 1ab, papain-like protease (rep, Severe acute respiratory syndrome coronavirus 2, UniProt P0DTD1)

SMILES	target	assay	test system	conditions	inhibition
OCC1OC(Oc2cc3c(O)cc(O)cc3[o+]c2-c2ccc(O)c(O)c2)C(O)C(O)C1O (stereo not shown)	rep main protease	enzyme activity, inhibitor	–	50 µM	22.6%
COC(=O)[C@H](C)NC(=O)c1ccccc1[Se][Se]c1ccccc1C(=O)N[C@@H](C)C(=O)OC	rep main protease	enzyme activity, inhibitor	–	40 µM	104% and 107%
CC(=O)Nc1ccc(-c2cnc(N3C(=O)C(Cl)C3c3cc4ccccc4nc3Cl)s2)cc1 (stereo not shown)	rep papain-like protease	enzyme activity, inhibitor	–	10 µM	77.9%
COc1c(O[C@@H]2O[C@H](C(=O)O)[C@@H](O)[C@H](O)[C@H]2O)cc(O)c2c(=O)cc(-c3ccccc3)oc12	rep main protease	enzyme activity	–	50 µM	inactive
CC(=O)c1ccc(C)cc1OC(=O)c1nc(S(=O)(=O)Cc2ccccc2F)ncc1Cl	rep main protease	enzyme activity, inhibitor	–	100 µM	99.9%
CCOC(=O)[C@H](C(C)C)n1[se]c2ccccc2c1=O	rep main protease	enzyme activity, inhibitor	–	40 µM	105%
O=C(c1ccc([N+](=O)[O-])c(-n2ccnc2)c1)N(c1cccc(Cl)c1)c1nc2ccccc2s1	rep main protease	reporter gene, inhibitor	HEK293T	10 µM, secondary screen, wild type	9 ± 0.5%
COc1cc2[nH]c(=O)n(CCC(=O)NCc3ccc4c(c3)OCO4)c(=O)c2cc1OC	rep main protease	enzyme activity, inhibitor	–	100 µg/mL	0%
COC(=O)C[C@H](NC(=O)c1ccccc1[Se][Se]c1ccccc1C(=O)N[C@@H](CC(=O)OC)C(=O)OC)C(=O)OC	rep main protease	enzyme activity, inhibitor	–	40 µM, mean of repeats	106%
Nn1cnn2c(SCC(=O)Nc3nnc(SCC(=O)Nc4ccc(S(N)(=O)=O)cc4)s3)nnc12	rep papain-like protease	enzyme activity, inhibitor	–	100 µg/mL	0%
Nc1ccc(-n2[se]c3ccccc3c2=O)cc1	rep main protease	enzyme activity, inhibitor	–	0.3 µM	71.6%
CC1(C)C2CCC(Cn3[se]c4ccccc4c3=O)C1C2 (stereo not shown)	rep main protease	enzyme activity, inhibitor	–	40 µM	103%
Nc1nnc(SC2CC(=O)N(c3cccc4ccccc34)C2=O)s1 (stereo not shown)	rep main protease	enzyme activity, inhibitor	–	1 µM	40.7%
O=C(Oc1cncc(Cl)c1)c1c[nH]c2ccccc12	rep main protease	enzyme activity, inhibitor, fluorescence	–	10 µM, pH 7.2	45%
CC[C@@H](C)[C@H](NC(=O)c1ccccc1[Se][Se]c1ccccc1C(=O)N[C@H](C(=O)OC)[C@H](C)CC)C(=O)OC	rep main protease	enzyme activity, inhibitor	–	40 µM	103%
O=C(NC1CCC(F)(F)CC1)C(c1cncnc1)N(C(=O)C(F)Cl)c1ccc(OC(F)(F)F)cc1 (stereo not shown)	rep main protease	enzyme activity	–	25 µM	99.6% and 96.9%
O=C(NC1CCN(c2ncnc3[nH]cnc23)CC1)c1cccc(NS(=O)(=O)c2ccc(C(F)(F)F)cc2)c1	Replicase polyprotein 1ab, nsp14 with nsp10 (rep, Severe acute respiratory syndrome coronavirus 2, UniProt P0DTD1)	exonuclease activity	SARS-CoV-2	3.125 µM	11.6%
O=C(NC1CCC(F)(F)CC1)C(c1cncnc1)N(C(=O)C(F)Cl)c1ccc(-c2cncs2)cc1 (stereo not shown)	rep main protease	enzyme activity	–	25 µM	100% and 102%
CC(=O)Nc1ccc(S(=O)(=O)NNc2ncnc3sccc23)cc1	Replicase polyprotein 1ab, nsp3 macrodomain (rep, Severe acute respiratory syndrome coronavirus 2, UniProt P0DTD1)	ADP-ribosylhydrolase activity, inhibitor, gel-based de-MARylation	–	1 µM, SARS-CoV-2 Mac1	17%
C[C@](C(=O)NC1CCOCC1)(c1cncnc1)N(C(=O)[C@H](F)Cl)c1ccc(OC(F)(F)Cl)cc1	rep main protease	enzyme activity	–	10 µM	102% and 100%
COc1ccc(-c2cc(=O)c3c(O)cc(O)c(-c4cc(-c5cc(=O)c6c(O)cc(OC)cc6o5)ccc4OC)c3o2)cc1	rep papain-like protease	enzyme activity, inhibitor	–	20 µM	32.3 to 34.1%
O=C(NCCc1cccc(F)c1)[C@@H](c1cncnc1)N(C(=O)[C@H](F)Cl)c1ccc(S(F)(F)(F)(F)F)cc1	rep papain-like protease	enzyme activity, inhibitor	–	20 µM	< 1%
COc1cc(Oc2c(O)cc(C)c(Br)c2OC)c(C(=O)O)c(C)c1O	rep main protease	enzyme activity, inhibitor, FRET	–	10 µM	46.7%
COc1ccc(NC(=O)Cn2c(=O)n(CCC(=O)NC3CCCC3)c(=O)c3cc(OC)c(OC)cc32)cc1	rep main protease	enzyme activity, inhibitor	–	100 µg/mL	3.6%
CCOC(=O)[C@@H](NC(=O)c1ccccc1[Se][Se]c1ccccc1C(=O)N[C@H](C(=O)OCC)C(C)C)C(C)C	rep main protease	enzyme activity, inhibitor	–	40 µM	88.7% and 86.5%
COc1cccc2c1C(=O)C=CC2=O	rep main protease	enzyme activity, inhibitor	–	0.1 µM	18.7%
C[C@](C(=O)NC1CCC(F)(F)CC1)(c1cncnc1)N(C(=O)[C@H](F)Cl)c1ccc(OC(F)(F)F)cc1	rep main protease	enzyme activity	–	0.926 µM	98.6% and 98.5%
O=c1c2ccccc2[se]n1-c1ccc(Cl)cc1	rep main protease	enzyme activity, inhibitor	–	0.3 µM	49.2%
